Measured values collected from several papers.
Each line is one published result; not all experiments were run side by side. Values joined by “and” are separate records of one study, mostly repeats; a detail may differ. ± gives the spread as reported.
Protein-S-isoprenylcysteine O-methyltransferase: Protein-S-isoprenylcysteine O-methyltransferase (Homo sapiens, UniProt O60725)
PRKACG: cAMP-dependent protein kinase catalytic subunit gamma (PRKACG, Homo sapiens, UniProt P22612)
USP5: Ubiquitin carboxyl-terminal hydrolase 5 (USP5, Homo sapiens, UniProt P45974)
PTGS2: Prostaglandin G/H synthase 2 (PTGS2, Homo sapiens, UniProt P35354)
Coelenterazine h 2-monooxygenase: Coelenterazine h 2-monooxygenase (Renilla reniformis, UniProt P27652)

Compound | target or system | assay | test system | conditions | how to read | measurement | value
CCCCCCCCN(CCC(=O)Nc1ccccc1)C(=O)c1nc[nH]n1 | Protein-S-isoprenylcysteine O-methyltransferase | enzyme activity | Sf9 membranes | 50 µM, with: [3H]S-adenosylmethionine, biotin-farnesyl-L-cysteine |  | inhibition | 0%
CN1CCN(Cc2ccc(-c3ccc(CO[C@H]4CCC[C@@H]4NC(=O)c4cc(-c5cnn(C)c5)cnc4N)cc3)cc2)CC1 | PRKACG | enzyme activity, inhibitor |  | 0.1 µM |  | inhibition | 8%
Cn1nc(-c2ccc(F)cc2)nc2c(=O)n(C)c(=O)nc1-2 | USP5 | enzyme activity, inhibitor |  | 17 µM |  | inhibition | 87%
Cn1ccc2cc(-n3c(=O)[nH]c4sc5c(c4c3=O)CCCC5)ccc21 | Androgen receptor (AR, Homo sapiens, UniProt P10275) | radioligand binding |  | 10 µM, with: testosterone |  | inhibition | -4%
CCCCCCCCN(CCC(=O)Nc1ccccc1)C(=O)c1cccn1C | Protein-S-isoprenylcysteine O-methyltransferase | enzyme activity | Sf9 membranes | 50 µM, with: [3H]S-adenosylmethionine, biotin-farnesyl-L-cysteine |  | inhibition | 75%
COCC(=O)N1CCc2cc(-c3csc(NC(=O)c4cc(OC)cc(OC)c4)n3)ccc21 | P2Y receptor, rat | radioligand binding |  | 10 µM |  | inhibition | 9%
N#CC(=Cc1cccs1)C(N)=C(C#N)C#N | USP5 | enzyme activity, inhibitor |  | 17 µM |  | inhibition | 6%
COC1CN([C@H]2CC[C@H]([C@@]3(C)Oc4c(Cl)cc(C(=O)NCc5c(SC)cc(C)[nH]c5=O)c(C)c4O3)CC2)C1 |  | RNA-seq, refers to: PHF13 | human, whole blood | dose not given, 24 h | baseline: pretreatment baseline | log2 fold change | 1.13
CS(=O)(=O)c1ccc(-n2cc(C=NN=c3[nH]c(-c4ccc(Br)cc4)cs3)c(-c3ccc(Br)cc3)n2)cc1 | PTGS2 | enzyme activity |  | 10 µM |  | inhibition | 77.2%
O=C1c2ccccc2C(=O)c2c1oc1c3c(ccc21)OCN(CC1CCCO1)C3 (stereo not drawn) | USP5 | enzyme activity, inhibitor |  | 17 µM |  | inhibition | 52%
C/C=C(/C)C(=O)O[C@@H]1C=C(C)CC[C@]2(O)[C@@H](C(C)C)CC(=O)[C@]12C | PTGS2 | enzyme activity, inhibitor |  | 3.9 µg/mL |  | inhibition | 0%
Cc1ccc2c(c1)sc(-c1ccc(N(C)C)cc1)[n+]2C.[I-] | Coelenterazine h 2-monooxygenase | luciferase activity, inhibitor, luminescence counter-screen |  | concentration not given, test 2 |  | inhibition | 83.2% and 64.4%
CCCCOc1ccc(CSC(=N)N)cc1 | USP5 | enzyme activity, inhibitor |  | 17 µM |  | inhibition | 3%
CC(C)Oc1ccc(CNCCC2(C(C)C)CCOC(C)(C)C2)cc1 (stereo not drawn) | Coelenterazine h 2-monooxygenase | luciferase activity, inhibitor, luminescence counter-screen |  | concentration not given, test 2 |  | inhibition | 105% and 126%
Cc1cccc(O[C@H]2CCC[C@@H](C(C)CNCc3ccncc3)C2)c1 (relative stereo) | G protein-coupled receptor kinase 6 (GRK6, Homo sapiens, UniProt P43250) | enzyme activity, inhibitor |  | 1 µM |  | inhibition | 9%
COc1cc(Nc2nccc(-c3cnn4nc(OC)ccc34)n2)cc(C(F)(F)F)c1 | Epidermal growth factor receptor (EGFR, Homo sapiens, UniProt P00533, del747-750/T751S) | binding |  | 1 µM |  | remaining binding | 94%
C/C=C/C(=O)Nc1ccc2nc(NCCCCCN(C)C)nc(NCCCCCCN(C)C)c2c1 | Protein arginine N-methyltransferase 6 (PRMT6, Homo sapiens, UniProt Q96LA8) | enzyme activity, inhibitor, radiometric |  | 10 µM |  | inhibition | 55%
CS(=O)(=O)c1ccc(-n2cc(C=NN=c3[nH]c(-c4ccc([N+](=O)[O-])cc4)cs3)c(-c3ccc([N+](=O)[O-])cc3)n2)cc1 | PTGS2 | enzyme activity |  | 10 µM |  | inhibition | 75.6%
CC(=O)C12NC(C)(C)CC1(C)C(=O)C1=C2c2c(c3c4n2C(C)(C)CC2=C4C4(CC(C)(C)NC(C)(C4)C2=O)CC3(C)C)C(=O)C(C)(C)N1 (single isomer, unassigned; (-)) | Potassium voltage-gated channel subfamily KQT member 4 (KCNQ4, Homo sapiens, UniProt P56696) | ion current, antagonist, whole-cell patch clamp | HEK293T | 10 µM |  | inhibition | 28.06 ± 0.11%
CCn1cc(C(=O)O)c(=O)c2c(N)c(F)c(NC3CCCCC3)cc21 | PRKACG | kinase activity |  | 0.1 µM, with: ATP at Km |  | inhibition | 7.6%
CC(=O)N[C@@H](CO)C(=O)N[C@H](C(=O)N1CCC[C@H]1C(=O)N[C@@H](CC(=O)O)C(=O)COC(=O)c1c(C)cccc1C)C(C)(C)C | Caspase-9 (CASP9, Homo sapiens, UniProt P55211) | enzyme activity, inhibitor |  |  |  | kinact/KI | 75700 M⁻¹ s⁻¹

Compound | target or system | assay | test system | conditions | how to read | measurement | value
O=C1c2sc(-c3ccc(N4CCC(F)C4)nc3F)nc2CCN1c1cccnc1 (stereo not drawn) | sodium channel site 2 | radioligand binding |  | 1 µM, with: antagonist radioligand |  | inhibition | 1%
CC1=C(C)C(=O)C(NCC2CCCO2)=CC1=O (stereo not drawn) | USP5 | enzyme activity, inhibitor |  | 17 µM |  | inhibition | 86%
CC=C(C)C(=O)OC1CC2C(C=C(C)C3C(OC(C)=O)CC(=O)C13C)OC(=O)C2C (stereo not drawn) | PTGS2 | enzyme activity, inhibitor |  | 31.25 µg/mL |  | inhibition | 0%
C[Si]1(C[C@H](CN)CC(=O)O)CCCC1 | P2Y receptor, rat | binding, radioligand binding |  | 70 µM, with: labelled ATP analogue |  | inhibition | -5%
CN(C)C/C=C/C(=O)Nc1ccc2nc(NCCCCCN(C)C)nc(NCCCCCCN(C)C)c2c1 | Protein arginine N-methyltransferase 3 (PRMT3, Homo sapiens, UniProt O60678) | enzyme activity, inhibitor, radiometric |  | 10 µM |  | inhibition | 79%
O=C(O)CCCN1C(=O)C(=C2SC(=S)N(CCCC(=O)O)C2=O)SC1=S | USP5 | enzyme activity, inhibitor |  | 17 µM |  | inhibition | 0%
Nc1ncc(-c2cc(-c3cnn(CC(F)(F)F)c3)ncc2F)nc1C(=O)NC1CNCC(F)C1 (stereo not drawn) | FYN | KINOMEscan |  | 1 µM | baseline: DMSO control | remaining binding | 100%
Cc1nn(-c2cccc(N)c2)c(=O)c2cnc(Nc3ccc(N4CCNCC4)cc3)nc12 | Death-associated protein kinase 3 (DAPK3, Homo sapiens, UniProt O43293) | SelectScreen kinase |  |  |  | IC50 | > 10 µM
C[Si](C)(C)C[C@H](CN)CC(=O)O | Substance-P receptor (TACR1, Homo sapiens, UniProt P25103) | ligand displacement, radioligand |  | 250 µM |  | inhibition | 6%
CC(=O)Nc1ccc2nc(C)sc2c1 | USP5 | enzyme activity, inhibitor |  | 17 µM |  | inhibition | 52%
CO[C@@H]1OC[C@@H](O)[C@H](O)[C@H]1O | PTGS2 | enzyme activity, inhibitor |  | 0.24 µg/mL |  | inhibition | 5.82%
CC(=O)Nc1ccc(C2CCCCC2)cc1 |  | hepatocyte stability | cryopreserved rat hepatocytes | 1 µM |  | hepatic clearance | 47 mL/min/kg
CS(=O)(=O)c1ccc(-n2cc(C=NN=c3[nH]c(-c4ccc([N+](=O)[O-])cc4)cs3)c(-c3ccc(Br)cc3)n2)cc1 | PTGS2 | enzyme activity |  | 100 µM |  | inhibition | 88.3%
CCCCCCCCN(CCC(=O)Nc1ccccc1)C(=O)c1ccccn1 | Protein-S-isoprenylcysteine O-methyltransferase | enzyme activity | Sf9 membranes | 50 µM, with: [3H]S-adenosylmethionine, biotin-farnesyl-L-cysteine |  | inhibition | 73%
Br.CCCCCCCCCn1c2c(c(=N)c3c1CCC3)CCCC2 | Coelenterazine h 2-monooxygenase | luciferase activity, inhibitor, luminescence counter-screen |  | concentration not given, test 1 |  | inhibition | 66.8% and 54.3%
N=C(N)NCCCC(NC(=O)C(CC(=O)NO)Cc1ccc2ccccc2c1)C(=O)NC(Cc1c[nH]c2ccccc12)C(=O)NC(CCC(=O)O)C(N)=O (stereo not drawn) | Neprilysin (MME, Homo sapiens, UniProt P08473) |  |  | 1 µM |  | inhibition | -10%
NC1=CC(=O)c2ccccc2C1=O | USP5 | enzyme activity, inhibitor |  | 17 µM |  | inhibition | 64%
CS(=O)(=O)c1ccc(-n2cc(C=NN=c3[nH]c(-c4ccc(Br)cc4)cs3)c(-c3ccc([N+](=O)[O-])cc3)n2)cc1 (mixture of isomers) | PTGS2 | enzyme activity |  | 100 µM |  | inhibition | 86.5%
COc1cccc(-c2cc(F)c(NC(=O)Nc3sc(C)nc3C(=O)O)c(F)c2)c1 | Dihydroorotate dehydrogenase (quinone), mitochondrial (DHODH, Homo sapiens, UniProt Q02127) | enzyme activity, DCIP colorimetric |  | 1.00 µM |  | inhibition | 76.7% and 77.1% and 76.3%
CN(C)C(=O)CNC(=O)c1ccc([C@H]2[C@@H](F)[C@@H](F)C[C@@H](F)[C@H]2F)cc1 |  | hepatocyte stability | cryopreserved mouse hepatocytes | 1 µM |  | hepatic clearance | 36 mL/min/kg
O=C1c2sc(-c3ccc(N4CCC(CO)CC4)nc3F)nc2CCN1c1cccnc1 | Apelin receptor (APLNR, Homo sapiens, UniProt P35414) | ligand displacement, radioligand |  | 1 µM |  | inhibition | 5%

For quick reference, copied from above:
Compound | target or system | assay | test system | conditions | how to read | measurement | value
CC(C)Oc1ccc(CNCCC2(C(C)C)CCOC(C)(C)C2)cc1 (stereo not drawn) | Coelenterazine h 2-monooxygenase | luciferase activity, inhibitor, luminescence counter-screen |  | concentration not given, test 2 |  | inhibition | 105% and 126%
Cc1cccc(O[C@H]2CCC[C@@H](C(C)CNCc3ccncc3)C2)c1 (relative stereo) | G protein-coupled receptor kinase 6 (GRK6, Homo sapiens, UniProt P43250) | enzyme activity, inhibitor |  | 1 µM |  | inhibition | 9%
COc1cc(Nc2nccc(-c3cnn4nc(OC)ccc34)n2)cc(C(F)(F)F)c1 | Epidermal growth factor receptor (EGFR, Homo sapiens, UniProt P00533, del747-750/T751S) | binding |  | 1 µM |  | remaining binding | 94%
C/C=C/C(=O)Nc1ccc2nc(NCCCCCN(C)C)nc(NCCCCCCN(C)C)c2c1 | Protein arginine N-methyltransferase 6 (PRMT6, Homo sapiens, UniProt Q96LA8) | enzyme activity, inhibitor, radiometric |  | 10 µM |  | inhibition | 55%
